Experimental data from different studies.
Protocols differ between the studies behind these lines. Several values in a cell are separate wells, animals, samples, runs or records. Numbers after ± are the reported error.
ROCK2: Rho-associated protein kinase 2 (ROCK2, Homo sapiens, UniProt O75116)
Sequence of UniProt O75116 (whole entry, looked up): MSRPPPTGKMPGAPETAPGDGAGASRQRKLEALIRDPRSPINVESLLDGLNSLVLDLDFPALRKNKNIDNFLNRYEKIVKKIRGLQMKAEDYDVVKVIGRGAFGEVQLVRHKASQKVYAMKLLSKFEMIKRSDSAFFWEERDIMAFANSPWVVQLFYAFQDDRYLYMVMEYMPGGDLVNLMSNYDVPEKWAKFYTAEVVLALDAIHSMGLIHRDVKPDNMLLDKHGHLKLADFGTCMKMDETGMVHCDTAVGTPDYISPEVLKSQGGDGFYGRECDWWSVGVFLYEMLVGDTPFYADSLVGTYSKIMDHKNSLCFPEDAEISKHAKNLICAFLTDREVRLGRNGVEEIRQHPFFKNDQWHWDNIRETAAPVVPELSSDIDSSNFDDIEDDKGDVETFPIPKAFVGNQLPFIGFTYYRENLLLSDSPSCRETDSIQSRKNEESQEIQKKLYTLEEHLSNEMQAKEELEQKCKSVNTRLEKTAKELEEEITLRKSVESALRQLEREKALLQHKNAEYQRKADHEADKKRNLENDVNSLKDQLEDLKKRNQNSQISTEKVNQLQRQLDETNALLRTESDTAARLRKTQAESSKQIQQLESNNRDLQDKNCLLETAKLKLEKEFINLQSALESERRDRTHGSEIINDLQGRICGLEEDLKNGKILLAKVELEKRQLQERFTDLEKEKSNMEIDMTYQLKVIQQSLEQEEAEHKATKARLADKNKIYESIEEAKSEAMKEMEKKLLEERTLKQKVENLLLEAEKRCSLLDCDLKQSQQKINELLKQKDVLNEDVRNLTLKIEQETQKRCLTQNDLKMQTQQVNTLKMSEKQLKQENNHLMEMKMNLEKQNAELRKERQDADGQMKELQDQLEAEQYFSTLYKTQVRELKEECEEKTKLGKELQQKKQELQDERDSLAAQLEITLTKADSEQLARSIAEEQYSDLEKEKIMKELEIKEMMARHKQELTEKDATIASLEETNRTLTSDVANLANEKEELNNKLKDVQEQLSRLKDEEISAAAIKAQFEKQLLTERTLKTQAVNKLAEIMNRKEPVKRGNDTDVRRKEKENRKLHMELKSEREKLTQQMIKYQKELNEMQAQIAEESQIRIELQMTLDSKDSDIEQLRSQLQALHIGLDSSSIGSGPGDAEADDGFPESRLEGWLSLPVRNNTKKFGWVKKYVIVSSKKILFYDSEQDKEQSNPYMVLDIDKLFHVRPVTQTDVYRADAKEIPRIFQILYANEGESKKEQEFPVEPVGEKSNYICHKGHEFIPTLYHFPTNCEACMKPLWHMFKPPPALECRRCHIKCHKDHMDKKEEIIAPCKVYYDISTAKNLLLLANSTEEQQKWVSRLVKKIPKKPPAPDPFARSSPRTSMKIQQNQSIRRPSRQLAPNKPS
Penicillin-binding protein 2B: Penicillin-binding protein 2B (Streptococcus pneumoniae, UniProt P0A3M6)
Sequence of UniProt P27361 (whole entry, looked up): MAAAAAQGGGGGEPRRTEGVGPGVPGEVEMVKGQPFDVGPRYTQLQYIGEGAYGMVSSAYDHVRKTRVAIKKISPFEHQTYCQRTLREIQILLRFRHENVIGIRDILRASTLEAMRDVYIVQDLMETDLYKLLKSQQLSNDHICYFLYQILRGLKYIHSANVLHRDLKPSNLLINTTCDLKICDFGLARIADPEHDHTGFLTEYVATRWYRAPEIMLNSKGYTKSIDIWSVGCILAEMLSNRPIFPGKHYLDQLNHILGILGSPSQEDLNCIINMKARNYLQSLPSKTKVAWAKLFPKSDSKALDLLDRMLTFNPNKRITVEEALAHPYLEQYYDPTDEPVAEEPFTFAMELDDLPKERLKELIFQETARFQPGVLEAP
Sequence of UniProt P06276 (whole entry, looked up): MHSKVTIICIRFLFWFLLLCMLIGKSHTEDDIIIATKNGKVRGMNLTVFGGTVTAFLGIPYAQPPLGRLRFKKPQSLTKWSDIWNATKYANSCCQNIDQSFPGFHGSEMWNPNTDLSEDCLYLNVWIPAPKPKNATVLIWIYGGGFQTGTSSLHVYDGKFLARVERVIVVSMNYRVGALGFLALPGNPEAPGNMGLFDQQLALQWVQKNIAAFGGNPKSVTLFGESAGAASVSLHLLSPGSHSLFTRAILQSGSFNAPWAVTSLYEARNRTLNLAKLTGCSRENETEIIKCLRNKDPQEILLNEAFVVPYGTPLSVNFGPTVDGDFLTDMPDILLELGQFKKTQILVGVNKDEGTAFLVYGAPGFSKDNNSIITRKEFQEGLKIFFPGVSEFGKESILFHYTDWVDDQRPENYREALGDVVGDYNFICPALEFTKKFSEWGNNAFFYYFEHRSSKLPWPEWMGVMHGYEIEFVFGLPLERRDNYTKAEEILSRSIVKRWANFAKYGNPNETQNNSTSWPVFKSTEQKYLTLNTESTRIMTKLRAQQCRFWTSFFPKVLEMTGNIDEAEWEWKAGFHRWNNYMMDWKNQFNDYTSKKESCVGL
Sequence of UniProt P81908 (whole entry, looked up): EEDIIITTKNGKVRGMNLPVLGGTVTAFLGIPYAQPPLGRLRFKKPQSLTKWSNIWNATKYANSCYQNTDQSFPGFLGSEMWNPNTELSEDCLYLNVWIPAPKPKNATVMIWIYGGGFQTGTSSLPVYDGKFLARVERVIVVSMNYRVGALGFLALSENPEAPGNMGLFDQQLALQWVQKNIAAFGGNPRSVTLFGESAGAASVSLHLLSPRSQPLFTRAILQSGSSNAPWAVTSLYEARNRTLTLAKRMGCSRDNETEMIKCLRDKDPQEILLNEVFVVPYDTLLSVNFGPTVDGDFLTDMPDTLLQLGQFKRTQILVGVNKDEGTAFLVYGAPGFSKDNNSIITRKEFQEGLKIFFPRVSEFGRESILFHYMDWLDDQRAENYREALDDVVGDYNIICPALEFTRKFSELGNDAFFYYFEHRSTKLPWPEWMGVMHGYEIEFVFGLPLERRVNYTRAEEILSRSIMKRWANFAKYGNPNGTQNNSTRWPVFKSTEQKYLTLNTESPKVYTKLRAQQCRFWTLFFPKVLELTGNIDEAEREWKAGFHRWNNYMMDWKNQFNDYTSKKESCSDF
Sequence of UniProt Q05941 (whole entry, looked up): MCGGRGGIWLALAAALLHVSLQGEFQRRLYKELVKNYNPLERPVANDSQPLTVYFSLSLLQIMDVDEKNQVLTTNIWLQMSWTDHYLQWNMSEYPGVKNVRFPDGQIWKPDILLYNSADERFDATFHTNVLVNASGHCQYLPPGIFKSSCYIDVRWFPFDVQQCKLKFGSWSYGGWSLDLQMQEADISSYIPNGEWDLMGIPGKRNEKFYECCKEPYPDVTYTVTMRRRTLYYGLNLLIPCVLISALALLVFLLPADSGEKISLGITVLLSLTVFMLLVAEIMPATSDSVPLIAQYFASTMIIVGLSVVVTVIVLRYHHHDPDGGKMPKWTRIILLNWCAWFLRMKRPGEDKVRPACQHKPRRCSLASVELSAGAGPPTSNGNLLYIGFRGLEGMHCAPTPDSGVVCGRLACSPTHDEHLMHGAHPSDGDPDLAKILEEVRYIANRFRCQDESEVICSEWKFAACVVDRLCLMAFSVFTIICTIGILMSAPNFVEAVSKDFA
Sequence of UniProt P49146 (whole entry, looked up): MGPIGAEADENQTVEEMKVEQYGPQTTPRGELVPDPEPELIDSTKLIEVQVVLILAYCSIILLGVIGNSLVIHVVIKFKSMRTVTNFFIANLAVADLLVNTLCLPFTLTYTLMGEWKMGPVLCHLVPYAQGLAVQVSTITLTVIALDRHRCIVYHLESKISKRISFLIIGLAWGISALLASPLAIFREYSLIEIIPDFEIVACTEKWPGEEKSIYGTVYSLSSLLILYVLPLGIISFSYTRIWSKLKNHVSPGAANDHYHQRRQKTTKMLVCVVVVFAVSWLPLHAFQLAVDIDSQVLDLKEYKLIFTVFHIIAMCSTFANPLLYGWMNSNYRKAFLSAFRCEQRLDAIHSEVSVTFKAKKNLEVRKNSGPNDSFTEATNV
Sequence of UniProt P00519 (whole entry, looked up): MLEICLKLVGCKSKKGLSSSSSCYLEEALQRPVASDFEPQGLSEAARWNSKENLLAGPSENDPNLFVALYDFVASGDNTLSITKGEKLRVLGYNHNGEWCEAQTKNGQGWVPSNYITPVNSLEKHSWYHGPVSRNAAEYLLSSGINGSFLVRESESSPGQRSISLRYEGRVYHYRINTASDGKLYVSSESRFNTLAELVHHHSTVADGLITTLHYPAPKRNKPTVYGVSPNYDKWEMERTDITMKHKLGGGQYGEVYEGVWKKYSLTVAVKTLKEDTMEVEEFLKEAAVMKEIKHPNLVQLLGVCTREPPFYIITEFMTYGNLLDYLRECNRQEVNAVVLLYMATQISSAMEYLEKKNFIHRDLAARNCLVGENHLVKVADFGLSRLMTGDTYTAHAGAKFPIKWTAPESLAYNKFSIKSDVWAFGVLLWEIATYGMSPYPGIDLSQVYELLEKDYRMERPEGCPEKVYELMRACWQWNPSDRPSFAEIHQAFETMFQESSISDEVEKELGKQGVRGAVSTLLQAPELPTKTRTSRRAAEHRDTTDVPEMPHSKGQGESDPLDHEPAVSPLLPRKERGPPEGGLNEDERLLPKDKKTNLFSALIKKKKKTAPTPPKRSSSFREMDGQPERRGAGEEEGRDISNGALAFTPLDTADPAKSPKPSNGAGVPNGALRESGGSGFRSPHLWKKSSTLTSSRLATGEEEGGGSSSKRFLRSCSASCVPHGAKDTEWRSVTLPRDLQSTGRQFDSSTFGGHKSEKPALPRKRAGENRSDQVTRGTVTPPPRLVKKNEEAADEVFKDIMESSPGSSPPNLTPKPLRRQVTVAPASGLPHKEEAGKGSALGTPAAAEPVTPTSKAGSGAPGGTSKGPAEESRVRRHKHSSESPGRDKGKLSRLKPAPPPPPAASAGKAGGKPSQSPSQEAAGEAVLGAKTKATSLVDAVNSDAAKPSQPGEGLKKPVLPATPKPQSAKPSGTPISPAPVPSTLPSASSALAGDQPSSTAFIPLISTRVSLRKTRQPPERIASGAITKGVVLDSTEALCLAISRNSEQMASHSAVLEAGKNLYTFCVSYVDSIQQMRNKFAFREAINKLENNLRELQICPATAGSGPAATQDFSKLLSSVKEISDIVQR

COC(=O)[C@@]1(O)C[C@H]2O[C@]1(C)n1c3ccccc3c3c4c(c5c6ccccc6n2c5c31)C(=O)NC4  kinase activity (MAPK3 (Homo sapiens, UniProt P27361); ADP-Glo; 100 nM, with: MBP substrate): 65.1% and 56.5% and 40.5%
NCc1cc(=O)[nH]o1  maximal response (GABA-A receptor; alpha-1/beta-2/gamma-2 (Rattus norvegicus, UniProt P18508+P62813+P63138); membrane potential, agonist, QP-DHM fluorescence; HEK293 expressing GABAA; relative to: GABA): 109%
CCN(CC)[C@@H]1CCc2c(F)ccc(O)c2C1  IC50 (Plasmodium falciparum; HB3): 1.26 µM
CCOP(=S)(OCC)O/N=C(\C#N)c1ccccc1  efficacy (Cholinesterase (BCHE, Homo sapiens, UniProt P06276); concentration not given, Triton): -98.3 ± 4.77%
O=C(Nc1cccnn1)N1CCC(=Cc2cccc(Oc3ccc(C(F)(F)F)cn3)c2)CC1  inhibition of binding (DRD3 (Homo sapiens, UniProt P35462); radioligand binding; 10 µM, with: [3H]spiperone): 23%
C[C@H]1COCCN1c1nc(NCc2cccnc2C(F)(F)F)c2cccnc2n1  IC50 (ROCK2; inhibitor): > 100 µM
CC1(C)Cc2c(sc(NC(=O)c3ccn[nH]3)c2C(N)=O)C(C)(C)O1  maximum current increase (CFTR (Homo sapiens, UniProt P13569, D924R/R347D); channel current, activator, inside-out patch clamp; CHO cells, transfected): 302 ± 62%
Nc1ccn([C@H]2C[C@H](O)[C@@H](COP(=O)(O)OP(=O)(O)OP(=O)(O)O)O2)c(=O)n1  kcat (Gag-Pol polyprotein, reverse transcriptase (gag-pol, Human immunodeficiency virus type 1 group M subtype B, UniProt P04585, K653R); nucleotide misincorporation, steady-state kinetics; K66R RT, with: matched template/primer, template T): 0.109 ± 0.0215 s⁻¹
CN[C@@]1(c2ccccc2Cl)CCCCC1=O  inhibition (DRD2 (Homo sapiens, UniProt P14416); radioligand binding, antagonist, radioligand displacement; 30 µM, short isoform): 7%
COc1cc2c3cc1Oc1cc(ccc1O)C[C@@H]1c4c(cc(OC)c(O)c4Oc4ccc(cc4)C[C@@H]3N(C)CC2)CC[N+]1(C)C  free receptor reduction (Chrnd/Chrna1/Chrne (Mus musculus, UniProt P02716+P04756+P20782); mouse diaphragm; 0.1 µM, AChE intact): 70%
CN(CC(=O)O)C(=N)NP(=O)(O)O  kcat (CKMT1A (Homo sapiens, UniProt P12532, E265D); substrate, Kinase-Glo luminescence; pH 7.0, reverse reaction, E227D mutant, with: second substrate in excess): 0.006 ± 0.0002 s⁻¹
Oc1ccc(-c2cc(Cl)ccc2Cl)c(Cl)c1  maximum activity (Androgen receptor (AR, Homo sapiens, UniProt P10275); reporter gene, antagonist; 5 µM, with: DHT 2 nM; relative to: DHT 2 nM): 41%
CO/N=C(\C(=O)N[C@@H]1C(=O)N2C(C(=O)O)=C(COC(C)=O)CS[C@H]12)c1csc(N)n1  kinact/KI (Penicillin-binding protein 2B; inhibitor): 5.4 ± 1.3 M⁻¹ s⁻¹
O=C1NCN(c2ccccc2)C12CCN(CC1COc3ccccc3O1)CC2 (stereo not shown)  efficacy (Cholinesterase (BCHE, Homo sapiens, UniProt P06276); concentration not given, Triton): -29.5 ± 8.15%
COc1cc(N)c(Cl)cc1C(=O)NC1CN2CCC1CC2 (stereo not shown)  log2 fold change (Mas-related G-protein coupled receptor member G (MRGPRG, Homo sapiens, UniProt Q86SM5); β-arrestin recruitment, TANGO luminescence, refers to: MRGPRG; concentration not given; relative to: basal luminescence): 0.002
Oc1cc(Br)cc(Br)c1Oc1ccc(Br)cc1Br  apparent Vmax (SULT1B1 (Homo sapiens, UniProt O43704); sulfonation, substrate): 49.5 nmol/min/mg protein
Fc1ccc(Oc2ccnc3cc(Cl)cc(Cl)c23)cc1  EC10 (PPARG (Homo sapiens, UniProt P37231); reporter gene, agonist, β-lactamase reporter; HEK293-H cells; 24 h, nominal concentration; relative to: 10% of rosiglitazone maximum effect): 0.384 µM
C#CCNCC(=O)O  KI (putA (Sinorhizobium meliloti, UniProt F7X6I3); covalent inactivator; 23 °C): 21.6 ± 0.8 µM
[2H]c1c([2H])c([C@]2([2H])CCCN2C(=O)C(C)(C)Oc2ccc3cn[nH]c3c2)c([2H])c([2H])c1C([2H])([2H])[2H]  remaining binding (ROCK2; KINOMEscan; 1 µM; relative to: DMSO control): 99%
C[C@H]1CN(c2n[nH]c3nc(N[C@H]4CC[C@H](NS(=O)(=O)CCC(F)(F)F)CC4)ncc23)CCO1  remaining binding (Structural maintenance of chromosomes protein 2 (Homo sapiens, UniProt O95347); Kinobeads competition, refers to: SMC2; 0.16 µM, unit not given; relative to: vehicle): 1.01
O=C(c1ccc(Cl)cc1)N1CCN2C(=O)N(OC(=O)N3CCOc4ccccc43)C(=O)C2C1 (stereo not shown)  probe labelling ratio (Keratin, type II cytoskeletal 1 (KRT1, Homo sapiens, UniProt P04264); MS-based ABPP; SW-620 conditioned medium; 10 µM, median protein ratio; relative to: compound over DMSO): 2.49
O=C(Nc1cnccc1Cl)N1CCN(Cc2ccc3c(c2)OC(F)(F)O3)CC1  inhibition (Adra1b (Rattus norvegicus, UniProt P15823); binding; 10 µM, with: [3H]prazosin): 3%
CN(C)c1ccc(O)c2c1C[C@H]1C[C@H]3[C@H](N(C)C)C(O)=C(C(N)=O)C(=O)[C@@]3(O)C(O)=C1C2=O  IC50 (Plasmodium falciparum; GB4): 5.01 µM
COc1ccc(N2C(=O)N(c3c(C)cccc3Cl)Cc3cnc(Nc4ccc(C5CCN(C)CC5)cc4OC)nc32)nc1  inhibition (EPHA8 (Homo sapiens, UniProt P29322); kinase activity; 0.5 µM): 97%
COc1ccc2c3c([nH]c2c1)CCN(C)CC3.O=C(O)/C=C/C(=O)O  recovery time constant (Chrna7 (Rattus norvegicus, UniProt Q05941); ion current, inhibitor, two-electrode voltage clamp; Xenopus laevis oocytes; 10 µM, rat receptor, with: acetylcholine 100 µM): 8.6 s
O=C[C@H](O)COP(=O)(O)O  Km (dxs (Pseudomonas aeruginosa, UniProt Q9KGU7, R482A); substrate): 2600 ± 400 µM
CC(C)(C)CC(C)(C)c1ccc(O)c(Cc2ccc(Cl)cc2Cl)c1  activity class (Cholinesterase (BCHE, Homo sapiens, UniProt P06276); biochemical; concentration not given): inactive
CC1(C)S[C@@H]2[C@H](NC(=O)Cc3ccccc3)C(=O)N2[C@H]1C(=O)O  kinact/KI (Penicillin-binding protein 2B; inhibitor): 11000 ± 2300 M⁻¹ s⁻¹
CCN(C)C(=O)Oc1ccc(CCC(=O)N2CCc3ccccc3C2)cc1  selectivity ratio (Cholinesterase (BCHE, Equus caballus, UniProt P81908); Ellman; equine serum BuChE; relative to: AChE IC50 over BuChE IC50): 0.3
Nc1ncnc2c1ncn2[C@@H]1O[C@H](COP(=O)(O)OP(=O)(O)OP(=O)(O)O)[C@@H](O)[C@H]1O  off-rate (kr1) (Cell cycle histidine kinase CckA, cytoplasmic region (Caulobacter vibrioides, UniProt Q9X688); binding, global kinetic model fit of phosphorylation): 0.46 s⁻¹
CCN(C)C(=O)Oc1ccc(CCC(=O)N(CC)Cc2ccccc2)cc1OC  selectivity ratio (Cholinesterase (BCHE, Equus caballus, UniProt P81908); Ellman; equine serum BuChE; relative to: AChE IC50 over BuChE IC50): 1.1
CC(C)C[C@@H](C=O)NC(=O)[C@H](CC(C)C)NC(=O)[C@H](CC(C)C)NC(=O)OCc1ccccc1  AUC ratio (Gag-Pol polyprotein, integrase (gag-pol, Human immunodeficiency virus 1, UniProt P12497); integrase multimerization, BiFC flow cytometry; 1 µM; relative to: DMSO): 1.25
COc1cc2c(Oc3ccc4[nH]c(C)cc4c3F)ccnc2cc1OCC1(N)CC1  grade 1 or 2 Fever (paediatric recurrent refractory sarcoma; 10 mg): 25%
CN(C(=O)n1cnc(-c2ccc[n+]([O-])c2)c1)C1CCCCC1  inhibition (High affinity choline transporter 1 (Rattus norvegicus, UniProt Q9JMD7); radioligand binding; 50 µM, with: [3H]hemicholinium-3): 11%
CO[C@H]1C[C@@H]2CC[C@@H](C)[C@@](O)(O2)C(=O)C(=O)N2CCCC[C@H]2C(=O)O[C@H]([C@H](C)C[C@@H]2CC[C@@H](OC(=O)NCCOCCOCCOCCOCCOCCOCCOCCOCCC(=O)N3CCc4cc(Cn5nc(-c6ccc7oc(N)nc7c6)c6c(N)ncnc65)ccc4C3)[C@H](OC)C2)C[C@@H](O)[C@H](C)/C=C(\C)[C@@H](O)[C@@H](OC)C(=O)[C@H](C)C[C@H](C)/C=C/C=C/C=C/1C  anaemia incidence (patients with advanced solid tumours; intravenous, 8 mg weekly, any grade): 43.8%
CC(C)[C@@H]1NC(=O)[C@H](Cc2ccccc2)NC(=O)[C@@H]2NC(=O)[C@H](Cc3ccccc3)NC(=O)[C@@H]3CCCN3C(=O)CNC(=O)[C@H](Cc3ccccc3)NC(=O)[C@@H]3CNCCCC[C@@H](C(=O)O)NC(=O)[C@@H]4NC(=O)[C@H](CC(N)=O)NC(=O)CNC(=O)[C@H]([C@@H](O)C(=O)O)NC(=O)[C@H](CSC[C@@H](NC(=O)[C@H](CCC(N)=O)NC(=O)[C@H](CCCCNC(=O)c5ccc(NN)nc5)NC(=O)[C@@H](N)CS[C@H]4C)C(=O)N[C@@H](CS[C@H]2C)C(=O)N3)NC1=O [technetium-99m labelled]  tissue uptake (rat, saline control, muscle; intravenous, 2 h after tracer, tracer 24 h after reperfusion): 0.02 %ID/g
Oc1ccc2[nH]cc(CCCCN3CC=C(c4ccccc4)CC3)c2c1  efficacy (Cholinesterase (BCHE, Homo sapiens, UniProt P06276); concentration not given, Triton): -94.7 ± 5.05%
CN1CCN(c2cc(-c3ccncc3)c(-c3ccc4ccccc4c3)nn2)CC1  activation (NPY2R (Homo sapiens, UniProt P49146); agonist, FLIPR; 12.5 µM): 0.8%
CC(=O)N[C@@H](C)C(=O)N1CCC[C@H]1C(=O)N[C@@H](CC(C)C)C(=O)N[C@H](C(=O)N[C@@H](CCCNC(=N)N)C(=O)NCC(=O)N[C@@H](CO)C(=O)N[C@@H](CS)C(=O)N[C@@H](CCCNC(=N)N)C(=O)N[C@@H](CCCCN)C(=O)N[C@@H](CCCNC(=N)N)C(=O)N[C@@H](CC(N)=O)C(=O)N[C@@H](CCCNC(=N)N)C(=O)N[C@@H](CO)C(=O)N1CCC[C@H]1C(=O)N[C@@H](CCC(=O)O)C(=O)N[C@@H](CCCNC(=N)N)C(N)=O)[C@@H](C)O  ΔG (WDR5 (Homo sapiens, UniProt P61964); binding, isothermal titration calorimetry; pH 7.0, 20 °C): -6.88 kcal/mol
C[n+]1cn([C@@H]2O[C@H](COP(=O)([O-])OP(=O)(O)OP(=O)(O)OC[C@H]3O[C@@H](n4cnc5c(=O)[nH]c(N)nc54)[C@H](O)[C@@H]3O)[C@@H](O)[C@H]2O)c2nc(N)[nH]c(=O)c21  ΔH (m7GpppX diphosphatase, C-terminal domain (DCS1, Saccharomyces cerevisiae, UniProt Q06151, H268N); binding, ITC): -10.8 kcal/mol
C[C@@H]1NC(=O)N[C@@H]1CCCCCC(=O)N1CCN(C(=O)c2ccc(/C=C/c3n[nH]c4cc(-c5ccc(S(=O)(=O)F)cc5)ccc34)cc2)CC1  kinact/KI (ABL1 (Homo sapiens, UniProt P00519); covalent inhibitor; recombinant protein): 90 M⁻¹ s⁻¹
COc1c(N2CC3CCCN(C(=O)OCc4ccc([N+](=O)[O-])cc4)C3C2)c(F)cc2c(=O)c(C(=O)O)cn(C3CC3)c12 (stereo not shown)  initial rate (nfsB (Escherichia coli K-12, UniProt P38489); substrate; with: NADH 100 µM): 0.045 ± 0.002 µM/min
CC[C@@H](C)[C@@H](NC(=O)[C@@H](Cc1ccc(O)cc1)NC(=O)[C@H]1CCCN1C(=O)[C@@H](CCCNC(=N)N)NC(=O)[C@H](N)Cc1c[nH]cn1)C(=O)N[C@H](C)C(=O)N[C@H](Cc1c[nH]cn1)C(=O)N[C@H](CCCNC(=N)N)C(=O)N[C@H](CCCCNC(=O)c1cccc(S(=O)(=O)F)c1)C(=O)N[C@H](Cc1ccc(O)cc1)C(=O)N[C@H](CO)C(=O)N[C@H](Cc1ccccc1)C(N)=O  surface TFRC expression (Transferrin receptor protein 1 (Tfrc, Mus musculus, UniProt Q62351); flow cytometry; RAW264.7; 6 h, pH 7.4, unit not given; relative to: 0 h): 0.904

Some of these lines once more:
CC1(C)S[C@@H]2[C@H](NC(=O)Cc3ccccc3)C(=O)N2[C@H]1C(=O)O  kinact/KI (Penicillin-binding protein 2B; inhibitor): 11000 ± 2300 M⁻¹ s⁻¹
CCN(C)C(=O)Oc1ccc(CCC(=O)N2CCc3ccccc3C2)cc1  selectivity ratio (Cholinesterase (BCHE, Equus caballus, UniProt P81908); Ellman; equine serum BuChE; relative to: AChE IC50 over BuChE IC50): 0.3
